Published values from different studies.
Parts stem from different laboratories: compare values within a part only. Positions count from the first letter of the parent shown.

Sample 1
Target: CREB3L1, bZIP domain (human)
Technique: DHFR protein complementation
Sample: yeast
Setting: single substitutions, most at no-binding floor
Relative to: wild-type JUN-FOS pair
Direction: higher = stronger binding
Starting sequence: JUN, bZIP domain (human); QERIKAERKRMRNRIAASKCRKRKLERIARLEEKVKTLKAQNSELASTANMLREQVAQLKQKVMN; partner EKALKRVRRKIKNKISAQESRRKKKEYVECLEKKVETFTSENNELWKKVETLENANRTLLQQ
| Change | binding fitness |
| --- | --- |
| E33G | -1.45 natural log |
| L45Y | -1.55 natural log |
| V35F | -1.57 natural log |
| E32I | -1.54 natural log |
| R30S | -1.49 natural log |
| T37E | -1.43 natural log |
| Q55P | -1.46 natural log |
| K34M | -1.47 natural log |
| R30Q | -1.25 natural log |
| S43T | -1.31 natural log |
| Q41T | -1.54 natural log |
| E33W | -1.51 natural log |
| Q58P | -1.31 natural log |

Sample 2
Target: RNA binding protein fox-1 homolog 2, RRM domain, GST-SBP tag (RBFOX2, Homo sapiens, UniProt O43251-10, residues 100-194)
Technique: RNA Bind-n-Seq
Form: RNA
Sample: in vitro
Concentration: 365 nM
Setting: natural RNA segment, single round, ends assumed
Relative to: no-protein control
Direction: higher = stronger binding
Shared flanks, not repeated: GGGAGUUCUACAGUCCGACGAUC … UGGAAUUCUCGGGUGCCAA
Construct (chain): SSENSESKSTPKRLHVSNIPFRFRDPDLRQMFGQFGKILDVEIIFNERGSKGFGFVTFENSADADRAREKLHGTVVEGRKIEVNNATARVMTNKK
| Strand | RBNS enrichment (R) |
| --- | --- |
| AGUGUCAGUAGCUGUCACGCGCAUUUGUGGUGCUUUGAUGUUUGCGAGUCUAACCUCCUCUCAUAAAUUUGGUCAGAUAAUUAAUUGGAACAAAGGGAAACAGAUAUUUG | 3.32 |
| UGAUACAGGAUGAACUUGGGAUGUUUGAACCCUGGACAUUCCAAAUAAAGAAUAGGCCCCUGCCUGGCUCCUGGGAGAUAACCUCUAAGCCAUUAGAAUAUCUUGCCUGA | 0.329 |
| AGCCGGGACUGUCACUUUGGAGACAAAACAGUGUUUGUAACAAUAACGUACUCACCGCCGCGGACAAUCCCCCACCCCGAUCCCUCGCCAGACCAGGACGCUUCCUCAAG | 0.388 |
| UUAUUGUAAUCUGACACAGGCAAAAUUAUGGUUCCCACACCCCAACCCCAAAUGAAACCUGGGAUUUUGAAUGUGGCUCUAAGAGUUAACAUUGCUGUCUGUAUGUCGUG | 0.483 |
| AAUCAUGUGCCAUGUGUAGGCUGUUGUGUGUACACUGUGUCUAAGAGAAGAAGAAAAGAAAAAAAAAAGAAAGAAACCCACAUGCCAUUUUUUUUUUCUGAUUCAAAUUC | 1.45 |
| CAAGUGCCCAUGUGUGUAUGGGAAGAGGUGGCUAAAGCCACUAGACUAGGGUGCUCACCCCUCAAGAUUGAUUCCCUGUCUUUCCCUCUGGGGCACCGCACUUUGUAAAG | 0.306 |
| CCAUUAGCAACACUAAAACUUGAUCAUUAACAGCCCCCUGUGCAUAUGAGUGGAUCAAACCGGUUCUGUUCUUUCUUGUGUUGCCAUGUUACUAUGCCUCAAGCCCAGUU | 1.04 |
| UGUACUGCCUGCCACCGCGGAGGAGGCUGGUGACAGGCCAAAGGCCAGUGGAAGAAACACCCUUUCAUCUCAGAGUCCACUGUGGCACUGGCCACCCCUCCCCAGUACAG | 0.392 |

Sample 3
Target: CCNE2, cyclin fold, Cln2 fusion (human)
Technique: yeast growth competition, sequencing
Sample: yeast
Setting: strong parent motif
Relative to: not given
Direction: higher = stronger binding
Starting sequence: CDC25A docking peptide (human); PPHRRRLLFACSP
| Change | normalised enrichment score |
| --- | --- |
| PHHRRRLLFACSP [P2H] | 2.57 |
| PPGRRRLLFACSP [H3G] | 0.985 |
| PPHRRRLLFACNP [S12N] | 2.65 |
| PPCRRRLLFACSP [H3C] | 3.9 |
| PQHRRRLLFACSP [P2Q] | 1.71 |
| PPHRRRLLFFCSP [A10F] | 1.77 |
| PPHRRRLLFHCSP [A10H] | 2 |
| PPHRDRLLFACSP [R5D] | 0.163 |
| PPHRRRDLFACSP [L7D] | 0.0953 |
| PPHRQRLLFACSP [R5Q] | 1.03 |
| PGHRRRLLFACSP [P2G] | 2.01 |
| PPHRRRLLFACAP [S12A] | 1.82 |
| PPHRRRLLFADSP [C11D] | 2.37 |
| PPHRRRMLFACSP [L7M] | 0.955 |
| RPHRRRLLFACSP [P1R] | 1.47 |

Sample 4
Target: Histone acetyltransferase KAT6A, winged helix 2, GST fusion (KAT6A, Homo sapiens, UniProt Q92794, residues 85-181)
Technique: protein binding microarray
Form: double-stranded DNA, one strand shown
Sample: in vitro
Concentration: not given
Setting: 8-mer, flanks averaged, mean of 2 arrays, mostly near background
Relative to: not given
Direction: higher = stronger binding
Target sequence (chain): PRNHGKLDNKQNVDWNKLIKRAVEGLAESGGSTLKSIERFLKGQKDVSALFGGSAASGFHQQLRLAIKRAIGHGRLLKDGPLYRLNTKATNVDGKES
| Strand | E-score |
| --- | --- |
| ATAGACAT | -0.0141 |
| CGGTATTA | 0.113 |
| GAAGGATA | -0.0714 |
| AGGACTCA | -0.223 |
| CGTAGAAA | -0.023 |
| AATGCTAA | 0.0644 |
| ACTCCAAT | -0.0688 |
| CTATTTCC | -0.0334 |
| CTCGGCGC | 0.103 |
| ACTACGAC | -0.0343 |
| ATGCGGAG | 0.0498 |
| AGCCTGCG | 0.0688 |
| ACACTTGG | -0.0682 |
| TACGAACA | 0.183 |
| CTTGCAGA | 0.147 |
| CTCCCAAC | 0.0246 |
| AAACTCAC | 0.0394 |

Sample 5
Target: RING finger protein unkempt homolog, zinc fingers 1-6, GST-SBP tag (UNK, Homo sapiens, UniProt Q9C0B0, residues 30-357)
Sequence of UniProt Q9C0B0 (30-357, looked up): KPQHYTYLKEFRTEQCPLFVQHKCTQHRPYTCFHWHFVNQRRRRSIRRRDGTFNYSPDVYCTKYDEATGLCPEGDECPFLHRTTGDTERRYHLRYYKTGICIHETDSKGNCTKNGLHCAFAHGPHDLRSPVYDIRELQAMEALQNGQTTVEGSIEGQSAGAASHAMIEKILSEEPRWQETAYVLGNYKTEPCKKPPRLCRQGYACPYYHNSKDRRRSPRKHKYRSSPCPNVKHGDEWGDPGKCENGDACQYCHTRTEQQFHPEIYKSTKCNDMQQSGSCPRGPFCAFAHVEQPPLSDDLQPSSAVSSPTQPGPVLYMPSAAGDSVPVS
Technique: RNA Bind-n-Seq
Form: RNA
Sample: in vitro
Concentration: not given
Setting: RNA with constant flanks, human-mouse chimeric sites, ends assumed
Relative to: input RNA pool
Direction: higher = stronger binding
Shared flanks, not repeated: GGGAGUUCUACAGUCCGACGAUC … CAACAGAGGAUUGAGCAUCA
| Strand | bound/input enrichment |
| --- | --- |
| GAUCCACAGUGGUCUGAGGAGCAACUCAUUGCUGCAAAAUUUUGCUUUGCUGGCCUUGUUAUAGGGCAGACUGAAGUGGACAUCAUGAGUCAUGCUACACAAGCUAUUUUUGAAAUUCUG | 0.129 ratio |
| GCUGAAAAUGAAGAAGAGGCAGCUGAUGUCUGGUACAACUUGGGACACAUAGCUGUGGGAAUCGGAGAUACAAACUUGGCCCACCAAUGCUUCAGGCUGGCUCUGGUCCACAACAACCAC | 0.175 ratio |
| ACCAUUUUCGCGGUUCAGGCUUUGUGUGUAGUUCACUUACGGUAUUAAAUUAUUAUUGCCCUUAGUUUAUAAUAAGGAUAAUUGCAUUUAAAGAGGUGAUCACUGAAUACUCUGAAACUU | 1.05 ratio |
| CAUGUAUCUGCAGUACUUGAUGUGGACUACUCUCCCACUGGGAAGGAAUUUGUGUCUGCCAGCUUUGAUAAGUCUAUUAGAAUCUUUCCUGUGGACAAGAGCCGAAGCAGGGAGGUAUAU | 0.471 ratio |
| UGUAGUUUCUUGAUUUAUCAUUUUUCUCUUUUCUUUCUUUCCUUUAGGAAAAGCCUAAAGAUUAGACUGUAAGAAAAACAGAAGCCAGCCAUGUUUCACCUGUGUUACAGGUAUUUCGUC | 0.22 ratio |
| UGUGCAUAUGAUGCUUGGAGAUGGUUUUGCAAAAGCAGAAAUCGCUGCAAGGUAAUCACAAUAGAUAAAAGUGGUAUUUUAAACCUUUGAAAGGAAUGGAUGUAACUGUACCUUGGUACA | 0.368 ratio |
| CUUAAUGUUAAUAUUUUUGAAUAAAUGAAGCUAAAAUGUCUGCUUUUGGUACAACACGCAUUAAUAAAAGGUUAAGUUUUGUUUUCCACUGAAGUACGUAAUACUUACUCAGAAAAAAAC | 0.279 ratio |
| CACACACUCUUCUGUGGGACCCUCAUCUUGCAGGCCCGGGCCUAUGUGGGACCGCACGUCCUGGCAGUGGUGACUCGCACAGGGUUCUGCACGGCAAAAGGGGGCCUGGUGAGCUCCAUC | 0.156 ratio |

Repeated from above (sample 3):
| Change | normalised enrichment score |
| --- | --- |
| PPHRRRLLFHCSP [A10H] | 2 |
| PPHRDRLLFACSP [R5D] | 0.163 |
| PPHRRRDLFACSP [L7D] | 0.0953 |
| PPHRQRLLFACSP [R5Q] | 1.03 |
| PGHRRRLLFACSP [P2G] | 2.01 |
| PPHRRRLLFACAP [S12A] | 1.82 |
